Results of several laboratories.
Numbered parts are unrelated; each lists some results of a single study.

Set 1
Target: Replicase polyprotein 1ab, nsp13 helicase (rep, Severe acute respiratory syndrome coronavirus 2, UniProt P0DTD1)
Action: inhibitor
Tested at: 20 µM
With `CC(C)CN(C[C@@H](OP(=O)(O)O)[C@H](Cc1ccccc1)NC(=O)O[C@H]1CCOC1)S(=O)(=O)c1ccc(N)cc1` the inhibition was 12.1%.
With `CCc1nn(CCCN2CCN(c3cccc(Cl)c3)CC2)c(=O)n1CCOc1ccccc1` the inhibition was -0.85%.
For `Cc1ccc([N+](=O)[O-])cc1S(=O)(=O)N(C)C`, the inhibition was -5.03%.
The inhibition of `CO[C@H]1[C@H](O)[C@@H](O)[C@@H](O)[C@H](O)[C@@H]1O` is reported as 5.49%.
With `C=Cc1c(C)c2cc3nc(c(CC(=O)O)c4[nH]c(cc5nc(cc1[nH]2)C(C)=C5CC)c(C)c4C(=O)O)[C@@H](CCC(=O)O)[C@@H]3C` the inhibition was 80.5%.
With `CCC1NC(=O)c2cc(S(N)(=O)=O)c(Cl)cc2N1` (stereo not shown) the inhibition was -5.44%.
`CCOc1ccccc1OCCN[C@H](C)Cc1ccc(OC)c(S(N)(=O)=O)c1` gave an inhibition of 0.8%.
`C(=C\c1ccccc1)/CN1CCN(CCOC(c2ccccc2)c2ccccc2)CC1` has an inhibition of 4.2%.
`Cc1cn([C@H]2C=C[C@@H](CO)O2)c(=O)[nH]c1=O` gave an inhibition of -3.08%.
`C=CCN1C[C@H](C(=O)N(CCCN(C)C)C(=O)NCC)C[C@@H]2c3cccc4[nH]cc(c34)C[C@H]21` has an inhibition of 1.34%.
For `CCOC(=O)c1ncc2[nH]c3cccc(OC(C)C)c3c2c1C`, the inhibition was 6.1%.
For `NS(=O)(=O)c1cc(C2(O)NC(=O)c3ccccc32)ccc1Cl` (stereo not shown), the inhibition was -6.69%.
The inhibition of `CCCCNC(=O)[C@@H]1Cc2ccccc2N1C(=O)[C@@H](N)CC` is reported as 2.74%.
The inhibition of `O=C1N[C@H](C(=O)O)CS1` is reported as 9.75%.
`Nc1ccc(C(=O)OCC(O)CO)cc1` (stereo not shown) has an inhibition of 5.08%.
For `Nc1c2ccccc2nc2ccccc12`, the inhibition was -10.3%.
With `NC(=O)C1CCCc2c1[nH]c1ccc(Cl)cc21` (stereo not shown) the inhibition was -0.04%.
With `CCCCNc1ncc2c(-c3ccc(CN4CCN(C)CC4)cc3)cn([C@H]3CC[C@H](O)CC3)c2n1` the inhibition was 19.8%.
The inhibition of `CCCCC[C@H](O)/C=C/[C@H]1[C@H](O)CC(=O)[C@@H]1CCCCCCC(=O)O` is reported as -4.31%.
With `CCC(=O)NCC[C@@H]1CCc2ccc3c(c21)CCO3` the inhibition was 6.8%.

Set 2
Target: RNA binding protein fox-1 homolog 2, RRM domain, GST-SBP tag (RBFOX2, Homo sapiens, UniProt O43251-10, residues 100-194)
Method: RNA Bind-n-Seq
Molecule type: RNA
Medium: in vitro
Tested at: 365 nM
Notes: natural RNA segment, single round, ends assumed
Baseline: no-protein control
Direction: higher = stronger binding
Constant ends, left off below: GGGAGUUCUACAGUCCGACGAUC … UGGAAUUCUCGGGUGCCAA
Construct (chain): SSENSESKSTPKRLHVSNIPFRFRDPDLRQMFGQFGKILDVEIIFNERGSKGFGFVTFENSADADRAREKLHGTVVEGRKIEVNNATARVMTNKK
Under “RBNS enrichment (R)”, `GAGGGGGGUUAGCAUUUCCACUUUCAGUUGAGUAGCAUUUUGUAGAAUAAAAUGAAUUAAGAUUGAAGAGCCUCUGAUGGUUGGUUUAUUCUGUCUUCCCAUCUCUCCUU` is recorded as 0.862.
`ACUUACACUGUAUAUUUUGCAAUAGUUACCUCAAGGCCUACUGACCAAAUUGUUGUGUUGAGAUGAUAUUUAACUUUUUGCCAAAUAAAAUAUAUUGAUUCUUUUCUAUU` — result for “RBNS enrichment (R)”: 0.463.
`AAAACUCAGAUGAGAUGCUCUGACUCCAUCGUGAAGUGGUCACUGAAAAAAAUGUUGCUGGUUUCUUGGGAUGAAAGAACUGAGCCAGCAUCUGAAAAAGAUCAUUUCAU` — result for “RBNS enrichment (R)”: 0.597.
Under “RBNS enrichment (R)”, `AUUGAGUUCCUUUUUUUAAGAUAGAAAUUCUUUUCAUGGUCCUCUGAAAGAAGCAAUAGUAACAAUCUUAUAUUGGAUCAUGGGGGAAGCAAAUGUGUGUAUUUUAAGUG` is recorded as 0.524.
`GCUCUCCUCCUUCUGUCCCCUCCCCUACUGUCUGCUGCCCCUUCCUGGGGAGUUGGUGCUUUCUUUUUUGUUGUUGUUUUUUCCCAGGGGUAGGGAGGAGAGAGGAGGGG`: “RBNS enrichment (R)” 2.41.
For `GCAGACUUUCUUUUGUCUGUUUCUAAAAUGUGAAGCUUUAGGACCAAAUUGUUAGACAGCAUCAGGAUUGCGGAUUAUCUCAAGUAGAUUUUGUUAGAGUUCAGAGCACA`, “RBNS enrichment (R)” read 6.21.
For `GCUCCCUAGCGCUAACCUAGGAACCGCCGCUGCCUGCUGGGGGGCCACGCCCCUCAUGCCCUUGUCCCAGGCCCGGGGCCUUCAGCGUUGAACACUUCCUUGCUUUUUUC`, “RBNS enrichment (R)” read 0.314.
Under “RBNS enrichment (R)”, `UAAAGGCUUUUUAAUAGCAGACUUCCAAAAGAUUGCAUUUAGGAUUUCUAGCAUGCUUUUAAUUUCAGAUUUUCAGCUGACAUUAGCUAUAGUAUACAGUAGGUUAAGAC` is recorded as 3.09.

Set 3
Target: Replicase polyprotein 1ab, main protease (rep, Severe acute respiratory syndrome coronavirus 2, UniProt P0DTD1)
Observed: enzyme activity
Action: inhibitor
Tested at: 20 µM
Notes: primary screen
For `C[C@@](Cc1ccc(O)c(O)c1)(NN)C(=O)O`, the inhibition was 90.7%.
For `CCc1ccc(/C=C/C(=O)Nc2ccc(C(C)=O)cc2)o1`, the inhibition was 57.1%.
The inhibition of `S=C(OC1CC2CC1C1CCCC21)[S][K]` (stereo not shown) is reported as 74.6%.
`C=CCN1CCc2cc(O)c(O)cc2C(c2ccccc2)C1` (stereo not shown) has an inhibition of 81%.

Set 4
Target: Histone acetyltransferase KAT6A, winged helix 1, GST fusion (KAT6A, Homo sapiens, UniProt Q92794, residues 1-85)
Method: protein binding microarray
Molecule type: double-stranded DNA, one strand shown
Medium: in vitro
Tested at: not given
Notes: 8-mer, flanks averaged, mean of 2 arrays, mostly near background
Baseline: not given
Direction: higher = stronger binding
Target sequence (chain): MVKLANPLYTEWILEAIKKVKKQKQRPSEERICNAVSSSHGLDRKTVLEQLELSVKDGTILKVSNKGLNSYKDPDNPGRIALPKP
For `CCCCCTAA`, the E-score was -0.116.
`CCGTGACG` gave an E-score of 0.307.
The E-score of `ATTAACCC` is reported as 0.0546.
`ACCAGACC` gave an E-score of -0.0516.
`ACATCACG` gave an E-score of 0.0542.
`AAGGGTTA` gave an E-score of 0.0231.
For `TAATCAGA`, the E-score was -0.0642.
The E-score of `CAATCGCA` is reported as 0.0481.

Set 5
Cell line: HEK-293T-ACE2
Tested at: concentration not given
Baseline: vehicle
With `O=C(O)CCCN1CCC(O[C@@H](c2ccc(Cl)cc2)c2ccccn2)CC1.O=S(=O)(O)c1ccccc1` the cell number was 101%.
`CCCC(CCC)C(=O)[O-].[Na+]` gave a cell number of 105%.
For `CN(C)CCC(c1ccc(Br)cc1)c1ccccn1.O=C(O)/C=C\C(=O)O` (stereo not shown), the cell number was 108%.

Excerpt of the above (set 1):
For `Cc1ccc([N+](=O)[O-])cc1S(=O)(=O)N(C)C`, the inhibition was -5.03%.
The inhibition of `CO[C@H]1[C@H](O)[C@@H](O)[C@@H](O)[C@H](O)[C@@H]1O` is reported as 5.49%.
With `C=Cc1c(C)c2cc3nc(c(CC(=O)O)c4[nH]c(cc5nc(cc1[nH]2)C(C)=C5CC)c(C)c4C(=O)O)[C@@H](CCC(=O)O)[C@@H]3C` the inhibition was 80.5%.
With `CCC1NC(=O)c2cc(S(N)(=O)=O)c(Cl)cc2N1` (stereo not shown) the inhibition was -5.44%.
`CCOc1ccccc1OCCN[C@H](C)Cc1ccc(OC)c(S(N)(=O)=O)c1` gave an inhibition of 0.8%.
`C(=C\c1ccccc1)/CN1CCN(CCOC(c2ccccc2)c2ccccc2)CC1` has an inhibition of 4.2%.
